# Measured values gathered from unrelated publications.
# Numbered parts are unrelated; each lists some results of a single study. Substitutions count along the parent as printed.

# Block 1
# Target: RING finger protein unkempt homolog, zinc fingers 1-6, SBP tag (UNK, Homo sapiens, UniProt Q9C0B0, residues 30-357)
# Sequence of UniProt Q9C0B0 (30-357, looked up): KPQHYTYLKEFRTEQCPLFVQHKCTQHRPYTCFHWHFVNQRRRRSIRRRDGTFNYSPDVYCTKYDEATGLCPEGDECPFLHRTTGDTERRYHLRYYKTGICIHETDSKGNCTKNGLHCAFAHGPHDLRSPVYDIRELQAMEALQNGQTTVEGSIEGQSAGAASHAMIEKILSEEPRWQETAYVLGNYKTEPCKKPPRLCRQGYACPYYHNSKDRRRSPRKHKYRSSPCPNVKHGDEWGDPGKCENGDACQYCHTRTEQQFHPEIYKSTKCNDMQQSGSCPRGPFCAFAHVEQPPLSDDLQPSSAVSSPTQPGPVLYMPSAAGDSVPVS
# Method: RNA Bind-n-Seq
# Form: RNA
# Medium: in vitro
# Tested at: 100 nM
# Notes: RNA with constant flanks, vertebrate orthologous sites, ends assumed
# Relative to: input RNA pool
# Direction: higher = stronger binding
# All sequences stand within: GGGAGUUCUACAGUCCGACGAUC … CAACAGAGGAUUGAGCAUCA
Sequence,bound/input enrichment [ratio]
CUGAAGCUUUGUGUUUGGCUGCACCUGCAUAAGCUGCUACAAAUAGAAUAAAGAAUUUCAUAGCCUGUAUCUAUCAUUUAGAUGCAUGGAAAAUGGGCUUUGCACACCGUGGGUUUGGAG,2.13
AGGACCUCCAGUAGGCAAAUUCAGGGGGAGAGAGGCUUCAGGGAAUAUAAACCCAGAUAGCAAUGAUCAUGAAGUAUAACCUUGACAUAACUAAAUGAUUUGGGGGAGUGAUGGCAACUU,1.27
GAACUCUUACAGUCUUAGAUGUUCUAAAAUACAUAAAUAUAUCUGAAUUGUAAGAGUUGUUAGCACAGGUUUUUUGUUUUGUUUUGUUUUUGAAGCACUUGUUUUGGGUACAAGGCAUUU,0.438
UUCAGGCACAACUGACAGGUUCACAGCAUUCCUUACCUAGUUAUUUUUCAAAUGCAAGUGUAGCUGAUUUUCAGGAUACAACCAGGCAGCCAUCUUUAUCUUGUAACCCAAUUGGAGAUU,2.96
UGGGUUAUUCCUAUUAUUAUCAAGUAGCUGGAAUUGUGAAGGUCGGAGUAGUUAGAUCUUUAGCUUUUAUUCCUUAUUUUUUUUUUGUAUUACUCUCCAUGUGUAUAAAUUAUUGAUCAU,3.53
UAUUUAAAAUAUAUUUAGUUGUAUUUAGUGACUUCAUUUCUAGUUCCUUGUUCAUUAAAGUAGCUCAUUUCUAUUAUUGCCUUUUUUGAGGAUUGGAACAAAUUGAAGGUUUGUGCAGUA,0.823
AUUGUACUCCAAAGUCAUCCUACCUCUAAAACAGCACGGUGAUGCCAAACUAGUCUACAUUAGGGAAUCACCUGCUGUCACAUUGUCAUUGGUGUGUGUCUUGAUGCCUGAACUGGUUAC,0.271
UCAUAAUCACUCUAAUCGUAAUCUGACAAGUGUAACAUUGUGUAGCCUUUUUGUAUAAAUUAGACAAAUAGAAAUGGUCCAAUUAGUUUCCUUUUUAAUAUGCUUAAAAUAAGCAGGUGG,2.99

# Block 2
# Target: ABI1, truncated, D143A, DHFR fusion (Arabidopsis thaliana)
# Method: DHFR PCA, deep sequencing
# Medium: yeast
# Notes: methotrexate growth selection, single substitutions
# With: (+)-ABA 0 µM
# Relative to: wild-type fitted maximum
# Direction: higher = stronger binding
# Starting sequence: PYL1, truncated, DHFR fusion (Arabidopsis thaliana); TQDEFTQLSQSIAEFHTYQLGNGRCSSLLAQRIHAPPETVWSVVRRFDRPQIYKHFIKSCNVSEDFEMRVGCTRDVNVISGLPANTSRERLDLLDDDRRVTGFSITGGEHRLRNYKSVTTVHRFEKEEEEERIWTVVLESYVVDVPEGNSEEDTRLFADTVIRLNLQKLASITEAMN
Change,relative binding score [%]
G107D,23.8
D144I,-15.7
D159V,-3.7
N85F,56.1
F157V,8.22
G71A,4.22
I57C,-1.89
S140K,0.381
N22E,52.7
E127V,25
E139W,5.13
T173G,-4.65
D48G,1.82
S80H,30.2
S11P,35.4
L91T,-1.98

# Block 3
# Target: Sal-like protein 4, full length isoform B (SALL4, Homo sapiens, UniProt Q9UJQ4-2, residues 1-616)
# Method: universal PBM
# Form: double-stranded DNA, one strand shown
# Medium: in vitro
# Tested at: not given
# Notes: 8-mer, flanks averaged, mean of replicates
# Direction: higher = stronger binding
Sequence,E-score
CCAAGACC,-0.212
AGAATTCG,0.0309
CGCCATAA,0.153
GCCGCCAA,-0.256
CCCCCGCC,-0.221
AGCTCCTA,-0.0628
AAGCATAC,0.312
ACACACAA,0.175
TCATGTCA,0.126
AAGACGGC,-0.135
ACCAGTTA,0.069
ATTGGGGA,-0.0806
ACCGACCA,-0.221
CACGATGC,-0.176
AACTCCAC,0.0637
AAAGTGCT,0.121
TGAATCCA,0.131
ACCGATCT,-0.183
AGGTTTGG,-0.166
ATTCGCCC,-0.188
CTGAATTC,-0.0609
CCACACGG,-0.256

# Block 4
# Target: CCND3, cyclin fold, Cln2 fusion (human)
# Method: yeast growth competition, sequencing
# Medium: yeast
# Notes: weak parent motif
# Relative to: not given
# Direction: higher = stronger binding
# Starting sequence: PKMYT1 docking peptide (human); SFEPRNLLSLFED
Change,normalised enrichment score
SVEPRNLLSLFED [F2V],0.0428
SFQPRNLLSLFED [E3Q],0.0643
SFEPRPLLSLFED [N6P],0.0684
SFEPRNVLSLFED [L7V],0.0752
SFEPRNLLSWFED [L10W],0.151
QFEPRNLLSLFED [S1Q],0.0376
SFEPVNLLSLFED [R5V],0.0888
SFDPRNLLSLFED [E3D],0.101
SFEPRNLLDLFED [S9D],0.0692
SFEPRNLLSLQED [F11Q],0.155
SFEPRNNLSLFED [L7N],0.146
SFEPRNLLSLFEQ [D13Q],0.0743
SFEPRNLLVLFED [S9V],0.125
SFEPRNLLSLFPD [E12P],0.0818
SFEPRNLLSLVED [F11V],0.115
SFEPFNLLSLFED [R5F],0.103
SFEPRNLLSLFCD [E12C],0.107
IFEPRNLLSLFED [S1I],0.0221
SFNPRNLLSLFED [E3N],0.00704
SFEPENLLSLFED [R5E],0.101
SFEPRNLPSLFED [L8P],0.117
SFEQRNLLSLFED [P4Q],0.168
SWEPRNLLSLFED [F2W],-0.00728
SFVPRNLLSLFED [E3V],0.12
SFEPRNLLILFED [S9I],0.0687

# Block 5
# Target: Histone acetyltransferase KAT6A, both winged helices, GST fusion (KAT6A, Homo sapiens, UniProt Q92794, residues 1-181)
# Method: protein binding microarray
# Form: double-stranded DNA, one strand shown
# Medium: in vitro
# Tested at: not given
# Notes: 8-mer, flanks averaged, mean of 2 arrays, mostly near background
# Relative to: not given
# Direction: higher = stronger binding
# Target sequence (chain): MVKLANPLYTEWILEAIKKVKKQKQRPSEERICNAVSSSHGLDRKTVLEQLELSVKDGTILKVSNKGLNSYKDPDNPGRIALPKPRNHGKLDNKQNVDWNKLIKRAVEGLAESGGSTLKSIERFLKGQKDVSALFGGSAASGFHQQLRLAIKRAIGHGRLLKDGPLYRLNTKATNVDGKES
Sequence,E-score
ACAGGAGC,-0.0172
CTTACTAC,-0.0846
GACAAACA,0.024
GGAGGTCA,-0.117
AGTCGAGC,-0.106
GTCCCCTA,-0.167
CCTAGGCC,-0.1
AGGTCGTG,-0.173
CTCACGGC,0.322
CGTCATCC,0.135
AGAGCTTC,-0.151
CCTCTGAG,-0.164
GTGTCTTA,-0.125
CGACAGCC,0.0002
CACGTAGC,-0.00826
GACTGCTC,-0.0822
CGGTAACA,0.122
AACGGTAT,0.137

# Block 6
# Target: PABPC1L2, full length, GST fusion (mouse, UniProt A0ABA7IW68)
# Method: RNAcompete
# Form: RNA
# Medium: in vitro
# Tested at: 20 nM
# Notes: 7-mer, probes averaged, single round
# Relative to: mean of 7-mers
# Direction: higher = stronger binding
# Target sequence (chain): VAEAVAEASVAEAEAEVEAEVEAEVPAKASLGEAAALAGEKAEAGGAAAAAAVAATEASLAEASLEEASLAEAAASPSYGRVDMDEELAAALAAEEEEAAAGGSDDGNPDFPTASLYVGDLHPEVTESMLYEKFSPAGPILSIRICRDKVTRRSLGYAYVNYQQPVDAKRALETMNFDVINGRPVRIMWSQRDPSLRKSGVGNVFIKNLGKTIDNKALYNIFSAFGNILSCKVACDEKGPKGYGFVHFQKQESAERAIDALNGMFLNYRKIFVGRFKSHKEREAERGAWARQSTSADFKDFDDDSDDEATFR
Sequence,7-mer Z-score
ACUCGUA,-0.306
UGUCGAC,-0.0391
UGUACAU,-0.146
UAGCUGG,-0.0573
GACGGGU,-0.124
GGACUAU,0.095
UGCGCAU,-0.28
CGAGUCU,-0.264
CGCUACA,-0.0808
GACACCU,-0.193
GAAUCCU,-0.385
GGAUGCU,-0.0192
UAGACCU,-0.166
CGAGACA,0.233
GAAGCAC,-0.0301
GGGAGAU,0.167
ACGACUG,-0.00652
CUCGUCA,-0.389
GAAUACG,-0.195
UUUAAGU,-0.0319
AAGAGCA,1.12

# For quick reference, copied from above (block 5):
Sequence,E-score
CGACAGCC,0.0002
CTTACTAC,-0.0846
CCTCTGAG,-0.164
AACGGTAT,0.137
GTCCCCTA,-0.167
CGTCATCC,0.135
GACAAACA,0.024
GACTGCTC,-0.0822
CCTAGGCC,-0.1
CGGTAACA,0.122
AGGTCGTG,-0.173
